Published values pooled from the literature.
Each numbered part is a random draw from the data of one study; scales do not carry over between parts.

Study 1
Target: Interferon regulatory factor 5, full length, phosphomimetic (IRF5, Homo sapiens, UniProt Q13568-2, residues 1-514, K96S/S451D/S453D/S456D/S462D)
Method: protein-binding microarray
Molecule type: double-stranded DNA, one strand shown
Sample: in vitro
Tested at: 250 nM
Notes: 60-bp whole probe
Together with: salmon DNA 0.4 mg/ml
Reference: random background probes
Reading: higher = stronger binding
Endpoint: log fluorescence
Constant ends, left off below: GCCTAGCAC … GTGCTAGGTCTTGATTCGCTTGACGCTGCTG
GACGGTTTCGGTTCCGGGAT: 10 z-score
TCATTTCCCAACATCAGACT: 0.562 z-score
GACGGTATCGTTCTCGGGAC: 1.64 z-score
TCAAATTTCCATTTTCTACT: 1.87 z-score
GACGGTTTCCTTTCTCTGAC: 1.79 z-score

Study 2
Target: Histone acetyltransferase KAT6A, winged helix 1, GST fusion (KAT6A, Homo sapiens, UniProt Q92794, residues 1-85)
Method: protein binding microarray
Molecule type: double-stranded DNA, one strand shown
Sample: in vitro
Tested at: not given
Notes: 8-mer, flanks averaged, mean of 2 arrays, mostly near background
Reference: not given
Reading: higher = stronger binding
Endpoint: E-score
Target sequence (chain): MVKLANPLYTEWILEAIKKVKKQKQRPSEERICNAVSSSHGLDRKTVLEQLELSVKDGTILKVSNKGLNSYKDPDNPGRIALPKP
ATCTGTTC: -0.138
ACGTTCAC: 0.0469
GACGGGCA: 0.286
ATTTACAG: -0.134
GGGGTACC: 0.0367
CAATACAA: -0.143

Other studies, line by line
Fmr1 C-terminal low-complexity region: Fragile X messenger ribonucleoprotein 1, C-terminal low-complexity region (Fmr1, Mus musculus, UniProt P35922)
GGGAGUUCUACAGUCCGACGAUCACCAAGCAGGUGGGCAUCUUUGGGAAGUGGGGCAAGGGGGGGAUAGGGAGGGGGGUAACACUUUGGGAACAGGUGGUCCCAGGUCGUUUCUGGAAUUCUCGGGUGUCAAGG
log2 enrichment (Fmr1 C-terminal low-complexity region; RNA Bind-n-Seq; RNA, in vitro; 200 nM, whole 134-nt RNA, ends assumed, together with: 150 mM KCl; reference: input library, higher = stronger binding): 0.567

PhoQ, residues 284 288 289 292 302 303 SASVAL
fold induction (PhoP, residues 12 14 15 18 19 HLGGL (Escherichia coli, UniProt P23836); Sort-seq, refers to: YFP reporter; E. coli; PhoQ-PhoP variant library, together with: 10 µM Mg2+; reference: high Mg2+ state, higher = stronger signaling): 0.777

GGGAGUUCUACAGUCCGACGAUCACCAUGCAGGUGGGCAUCUUUGGGAAGUGGGGCAAGGGGGGGAUAGGGAAGGGGGUAACACUUUGGGAACAGGUGGUCCCAGGUCGUUUCUGGAAUUCUCGGGUGUCAAGG
log2 enrichment (Fmr1 C-terminal low-complexity region; RNA Bind-n-Seq; RNA, in vitro; 200 nM, whole 134-nt RNA, ends assumed, together with: 150 mM KCl; reference: input library, higher = stronger binding): 0.558
